Measured values from different studies.
Every numbered part comes from another study and shows a few of its results, in no order. “And” joins repeats or separate records; there may be more than shown.
Sequence of UniProt P42680 (whole entry, looked up): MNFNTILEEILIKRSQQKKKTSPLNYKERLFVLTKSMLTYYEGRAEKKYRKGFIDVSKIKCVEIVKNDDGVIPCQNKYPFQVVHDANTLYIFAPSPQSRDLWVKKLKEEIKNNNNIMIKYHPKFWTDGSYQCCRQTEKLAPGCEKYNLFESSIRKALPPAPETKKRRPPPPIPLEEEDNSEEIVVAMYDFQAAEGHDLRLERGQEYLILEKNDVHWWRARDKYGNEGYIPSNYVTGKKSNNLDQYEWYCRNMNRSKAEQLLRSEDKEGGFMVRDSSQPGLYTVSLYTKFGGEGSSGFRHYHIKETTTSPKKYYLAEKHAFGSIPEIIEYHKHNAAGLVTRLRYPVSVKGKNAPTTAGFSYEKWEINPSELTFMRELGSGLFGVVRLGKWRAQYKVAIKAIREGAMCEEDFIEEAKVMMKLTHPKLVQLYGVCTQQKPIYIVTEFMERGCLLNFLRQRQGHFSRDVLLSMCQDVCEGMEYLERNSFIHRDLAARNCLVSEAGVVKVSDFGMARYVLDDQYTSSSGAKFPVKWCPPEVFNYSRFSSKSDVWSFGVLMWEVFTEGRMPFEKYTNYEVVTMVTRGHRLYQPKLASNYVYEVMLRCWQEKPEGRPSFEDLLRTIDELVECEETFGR
Sequence of UniProt Q05513 (whole entry, looked up): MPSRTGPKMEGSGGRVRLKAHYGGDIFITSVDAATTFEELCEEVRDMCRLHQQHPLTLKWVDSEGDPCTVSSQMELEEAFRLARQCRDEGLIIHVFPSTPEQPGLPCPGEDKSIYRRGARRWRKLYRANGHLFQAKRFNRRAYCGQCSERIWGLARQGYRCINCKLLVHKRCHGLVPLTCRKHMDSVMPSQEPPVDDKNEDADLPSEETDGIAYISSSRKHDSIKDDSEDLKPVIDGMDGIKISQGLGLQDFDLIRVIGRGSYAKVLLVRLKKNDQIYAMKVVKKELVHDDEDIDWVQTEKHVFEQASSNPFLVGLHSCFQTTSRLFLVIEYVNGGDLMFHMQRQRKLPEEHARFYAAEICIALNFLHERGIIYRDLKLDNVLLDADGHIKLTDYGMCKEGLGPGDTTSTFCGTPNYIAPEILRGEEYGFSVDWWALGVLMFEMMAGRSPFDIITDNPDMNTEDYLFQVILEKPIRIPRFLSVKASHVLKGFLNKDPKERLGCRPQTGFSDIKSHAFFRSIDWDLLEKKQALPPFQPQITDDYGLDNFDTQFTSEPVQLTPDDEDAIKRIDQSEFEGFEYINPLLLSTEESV
Sequence of UniProt Q9H0K1 (whole entry, looked up): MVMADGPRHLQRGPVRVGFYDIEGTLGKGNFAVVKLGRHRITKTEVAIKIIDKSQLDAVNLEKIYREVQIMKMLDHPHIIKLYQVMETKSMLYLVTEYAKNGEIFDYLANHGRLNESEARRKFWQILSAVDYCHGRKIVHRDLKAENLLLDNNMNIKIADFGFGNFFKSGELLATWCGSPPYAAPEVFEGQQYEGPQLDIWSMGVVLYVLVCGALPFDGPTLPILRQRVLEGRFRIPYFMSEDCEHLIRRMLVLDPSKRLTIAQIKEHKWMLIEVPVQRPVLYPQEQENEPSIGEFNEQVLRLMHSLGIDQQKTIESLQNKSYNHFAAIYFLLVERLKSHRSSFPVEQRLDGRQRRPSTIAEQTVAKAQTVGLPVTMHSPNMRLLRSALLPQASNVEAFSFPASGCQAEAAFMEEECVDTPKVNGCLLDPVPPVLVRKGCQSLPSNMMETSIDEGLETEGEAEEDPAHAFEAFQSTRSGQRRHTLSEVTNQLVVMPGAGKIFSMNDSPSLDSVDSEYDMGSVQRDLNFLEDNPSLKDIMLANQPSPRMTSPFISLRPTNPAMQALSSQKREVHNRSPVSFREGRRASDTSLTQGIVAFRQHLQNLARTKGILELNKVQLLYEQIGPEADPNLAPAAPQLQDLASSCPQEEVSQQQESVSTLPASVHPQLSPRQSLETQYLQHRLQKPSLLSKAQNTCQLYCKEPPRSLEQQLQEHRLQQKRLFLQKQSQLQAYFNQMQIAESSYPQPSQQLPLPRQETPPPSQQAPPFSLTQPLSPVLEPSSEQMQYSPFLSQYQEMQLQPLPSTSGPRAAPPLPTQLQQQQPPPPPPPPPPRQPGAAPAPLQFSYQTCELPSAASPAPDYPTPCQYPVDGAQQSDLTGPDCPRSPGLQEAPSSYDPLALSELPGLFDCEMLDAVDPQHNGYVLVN
Sequence of UniProt Q04759 (whole entry, looked up): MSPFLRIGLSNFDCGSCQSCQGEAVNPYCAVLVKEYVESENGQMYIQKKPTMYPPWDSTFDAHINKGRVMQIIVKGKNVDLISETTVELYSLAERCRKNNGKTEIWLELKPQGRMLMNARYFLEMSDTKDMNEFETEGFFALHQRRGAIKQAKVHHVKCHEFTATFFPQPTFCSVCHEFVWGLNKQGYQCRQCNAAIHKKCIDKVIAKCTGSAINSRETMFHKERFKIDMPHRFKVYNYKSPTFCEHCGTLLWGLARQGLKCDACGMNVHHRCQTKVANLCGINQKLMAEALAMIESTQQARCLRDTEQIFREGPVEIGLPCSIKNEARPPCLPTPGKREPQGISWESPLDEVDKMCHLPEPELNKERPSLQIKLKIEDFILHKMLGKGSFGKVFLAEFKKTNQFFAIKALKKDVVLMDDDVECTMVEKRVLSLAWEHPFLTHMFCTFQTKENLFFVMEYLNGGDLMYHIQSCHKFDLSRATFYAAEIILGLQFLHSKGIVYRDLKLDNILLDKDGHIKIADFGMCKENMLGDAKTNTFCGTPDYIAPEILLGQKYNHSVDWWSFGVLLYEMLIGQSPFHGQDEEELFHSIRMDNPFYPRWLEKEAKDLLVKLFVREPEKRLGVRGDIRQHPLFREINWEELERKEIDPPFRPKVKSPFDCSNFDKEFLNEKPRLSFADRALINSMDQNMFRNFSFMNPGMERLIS
Sequence of UniProt P47898 (whole entry, looked up): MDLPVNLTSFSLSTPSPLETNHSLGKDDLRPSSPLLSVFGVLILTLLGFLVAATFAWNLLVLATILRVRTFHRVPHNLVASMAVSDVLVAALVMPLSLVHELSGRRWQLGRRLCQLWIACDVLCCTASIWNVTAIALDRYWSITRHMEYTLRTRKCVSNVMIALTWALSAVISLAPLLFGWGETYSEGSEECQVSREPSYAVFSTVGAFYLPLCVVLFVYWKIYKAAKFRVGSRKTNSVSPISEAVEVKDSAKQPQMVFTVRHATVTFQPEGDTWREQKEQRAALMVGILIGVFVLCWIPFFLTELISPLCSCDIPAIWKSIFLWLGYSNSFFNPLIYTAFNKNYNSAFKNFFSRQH
Sequence of UniProt Q32MK0 (whole entry, looked up): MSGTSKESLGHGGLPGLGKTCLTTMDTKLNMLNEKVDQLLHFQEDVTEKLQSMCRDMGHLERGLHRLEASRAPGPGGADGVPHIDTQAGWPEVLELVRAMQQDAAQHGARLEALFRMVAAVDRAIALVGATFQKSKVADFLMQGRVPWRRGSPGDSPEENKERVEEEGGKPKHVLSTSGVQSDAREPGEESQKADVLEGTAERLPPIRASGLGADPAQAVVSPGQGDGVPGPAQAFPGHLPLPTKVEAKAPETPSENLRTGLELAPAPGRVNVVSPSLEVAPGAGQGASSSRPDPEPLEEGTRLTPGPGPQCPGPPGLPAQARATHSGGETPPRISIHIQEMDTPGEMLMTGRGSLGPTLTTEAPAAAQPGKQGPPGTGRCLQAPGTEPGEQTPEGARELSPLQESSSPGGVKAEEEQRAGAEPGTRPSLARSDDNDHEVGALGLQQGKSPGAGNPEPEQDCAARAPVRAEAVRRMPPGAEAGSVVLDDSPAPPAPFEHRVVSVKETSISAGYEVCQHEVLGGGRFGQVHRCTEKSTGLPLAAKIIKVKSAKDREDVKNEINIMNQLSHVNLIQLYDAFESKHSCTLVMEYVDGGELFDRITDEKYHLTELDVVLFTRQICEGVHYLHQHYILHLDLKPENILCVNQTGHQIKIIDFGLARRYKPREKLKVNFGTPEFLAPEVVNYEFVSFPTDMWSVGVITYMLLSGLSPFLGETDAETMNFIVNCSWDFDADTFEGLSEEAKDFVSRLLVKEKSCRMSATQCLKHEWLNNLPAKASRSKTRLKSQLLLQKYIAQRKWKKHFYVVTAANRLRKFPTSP
Sequence of UniProt P49760 (whole entry, looked up): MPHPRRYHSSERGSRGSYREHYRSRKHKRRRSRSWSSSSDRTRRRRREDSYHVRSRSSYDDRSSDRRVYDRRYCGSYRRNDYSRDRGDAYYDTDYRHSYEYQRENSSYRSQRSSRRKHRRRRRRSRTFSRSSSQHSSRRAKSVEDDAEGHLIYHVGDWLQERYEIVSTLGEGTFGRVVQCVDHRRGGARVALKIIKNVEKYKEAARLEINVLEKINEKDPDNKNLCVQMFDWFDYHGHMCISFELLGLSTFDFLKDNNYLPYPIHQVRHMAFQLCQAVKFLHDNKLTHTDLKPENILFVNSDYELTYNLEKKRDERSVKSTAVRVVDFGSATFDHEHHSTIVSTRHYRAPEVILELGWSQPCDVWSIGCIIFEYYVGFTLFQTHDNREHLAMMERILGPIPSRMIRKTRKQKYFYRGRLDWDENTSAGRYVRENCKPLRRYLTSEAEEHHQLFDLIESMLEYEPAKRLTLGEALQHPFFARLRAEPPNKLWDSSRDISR
Sequence of UniProt Q9HBY8 (whole entry, looked up): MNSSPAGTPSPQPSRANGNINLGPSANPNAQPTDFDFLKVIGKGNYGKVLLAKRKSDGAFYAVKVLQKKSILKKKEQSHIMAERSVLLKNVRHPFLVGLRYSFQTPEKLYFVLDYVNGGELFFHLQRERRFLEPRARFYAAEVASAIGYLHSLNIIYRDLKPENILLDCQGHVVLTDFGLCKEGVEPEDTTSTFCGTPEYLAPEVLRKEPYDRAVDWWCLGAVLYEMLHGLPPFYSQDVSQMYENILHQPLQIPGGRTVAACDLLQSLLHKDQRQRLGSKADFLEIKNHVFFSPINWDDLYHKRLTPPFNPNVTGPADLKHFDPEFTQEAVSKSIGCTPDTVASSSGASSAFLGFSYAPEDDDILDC

Series 1
Sample: hydrocarbon/water
Measurement: logD
CCC[C@H]1C(=O)N[C@@H](CC)C(=O)N(C)[C@@H](C)C(=O)N[C@@H](CC(C)C)C(=O)N(C)Cc2cn(nn2)CC(=O)N[C@@H](CC(C)C)C(=O)N(C)[C@@H](C)C(=O)N[C@@H](CC(C)C)C(=O)N2CCC[C@@H]2C(=O)N1C: -0.503
CCN1CC(=O)NC(CC(C)C)C(=O)N(C)C(C)C(=O)NC(CC(C)C)C(=O)N2CCCC2C(=O)N(CC2CCCCC2)CC(=O)NC(CC(C)C)C(=O)N(C)C(C)C(=O)NC(C)C(=O)N2CCCC2C1=O (centres unmarked): 2.44
CCOC(=O)[C@@H]1CSCC(=O)N[C@H](CC)C(=O)N(CC(C)C)CC(=O)N[C@H](CC(C)C)C(=O)N(C)[C@H](C)C(=O)N(C)[C@@H](C)C(=O)N[C@H](CC(C)C)C(=O)N(C)[C@H](C)C(=O)N[C@@H](CC(C)C)C(=O)N1C: 1.45
CC[C@@H]1C(=O)N(C)[C@@H](CC(C)C)C(=O)N[C@@H](CC(C)C)C(=O)N2CCC[C@@H]2C(=O)N(C)[C@@H](Cc2ccc(O)cc2)C(=O)N[C@@H](CC(C)C)C(=O)N1C: 1.46
CCC[C@@H]1NC(=O)[C@H](C)N(C)C(=O)[C@H](CC(C)C)NC(=O)Cn2cc(nn2)CN(C)C(=O)[C@H](CC(C)C)NC(=O)[C@H](C)N(C)C(=O)[C@H](CC2CCCCC2)NC(=O)[C@H](CC)N(C)C(=O)[C@H]2CCCN2C1=O: 0.653
CCC[C@@H]1NC(=O)CN(CC)C(=O)[C@H](CC(C)C)NC(=O)Cn2cc(nn2)CN(C)C(=O)[C@H](CC(C)C)NC(=O)[C@H](C)N(C)C(=O)[C@H](CC(C)C)NC(=O)[C@H](C)N(C)C(=O)[C@H]2CCCN2C1=O: -1.2
CC[C@@H]1NC(=O)[C@H](C)N(C)C(=O)[C@H]2CCCN2C(=O)[C@H](CC(C)C)NC(=O)CN(CC)C(=O)[C@H](CC(C)C)NC(=O)Cn2cc(nn2)CN(C)C(=O)[C@H](CC(C)C)NC(=O)[C@H](C)N(C)C1=O: -1.93
CCOC(=O)[C@@H]1CSCC(=O)N[C@H](CC)C(=O)N(C)[C@@H](C)C(=O)N[C@@H](CC(C)C)C(=O)N2CCC[C@H]2C(=O)N(CC(C)C)CC(=O)N[C@@H](CC(C)C)C(=O)N(C)[C@@H](C)C(=O)N[C@@H](CC(C)C)C(=O)N1C: 0.905

Series 2
SMILES: CN1CCN(C(=O)c2ccc(NC(=O)Nc3ccc(N(C)c4ccnc(Nc5ccc(CS(C)(=O)=O)cc5)n4)cc3)cc2)CC1
Observed: binding
Tested at: 1 µM
Measurement: remaining binding
Testis-specific serine/threonine-protein kinase 3 (TSSK3, Homo sapiens, UniProt Q96PN8): 75%
Tyrosine-protein kinase Tec (TEC, Homo sapiens, UniProt P42680); competition with immobilised ligand: 100%
Calcium/calmodulin-dependent protein kinase type 1B (PNCK, Homo sapiens, UniProt Q6P2M8): 85%
Serine/threonine-protein kinase MAK (MAK, Homo sapiens, UniProt P20794): 64%
Myosin light chain kinase (MYLK3, Homo sapiens, UniProt Q32MK0); competition with immobilised ligand: 86%
Serine/threonine-protein kinase RIO1 (RIOK1, Homo sapiens, UniProt Q9BRS2): 2.2%

Series 3
SMILES: Nc1[nH]nc2nnc(-c3c(-c4ccccc4)nn4ccccc34)cc12
Observed: enzyme activity
Action: inhibitor
Tested at: 0.5 µM
Relative to: control
Measurement: remaining activity
Ribosomal protein S6 kinase alpha-3 (RPS6KA3, Homo sapiens, UniProt P51812): 98.7%
Casein kinase I isoform delta (CSNK1D, Homo sapiens, UniProt P48730): 63.2%
Mitogen-activated protein kinase kinase kinase 20 (MAP3K20, Homo sapiens, UniProt Q9NYL2): 101%
Vascular endothelial growth factor receptor 1 (FLT1, Homo sapiens, UniProt P17948): 96.7%
Dual specificity tyrosine-phosphorylation-regulated kinase 1A (DYRK1A, Homo sapiens, UniProt Q13627): 102%
Ephrin type-A receptor 2 (EPHA2, Homo sapiens, UniProt P29317): 98.3%
Serine/threonine-protein kinase PAK 5 (PAK5, Homo sapiens, UniProt Q9P286): 98.2%
Serine/threonine-protein kinase PAK 6 (PAK6, Homo sapiens, UniProt Q9NQU5): 96.4%
Protein kinase C theta type (PRKCQ, Homo sapiens, UniProt Q04759): 79.9%
Serine/threonine-protein kinase Sgk2 (SGK2, Homo sapiens, UniProt Q9HBY8): 98.8%
Protein kinase C zeta type (PRKCZ, Homo sapiens, UniProt Q05513): 83.9%
Receptor tyrosine-protein kinase erbB-2 (ERBB2, Homo sapiens, UniProt P04626): 105%
Tyrosine-protein kinase Yes (YES1, Homo sapiens, UniProt P07947): 91.1%
Muscle, skeletal receptor tyrosine-protein kinase (MUSK, Homo sapiens, UniProt O15146): 96.8%
Tyrosine-protein kinase Tec (TEC, Homo sapiens, UniProt P42680): 96.1%
Tyrosine-protein kinase JAK1 (JAK1, Homo sapiens, UniProt P23458): 104%
Dual specificity protein kinase CLK2 (CLK2, Homo sapiens, UniProt P49760): 94.9%
Serine/threonine-protein kinase PAK 4 (PAK4, Homo sapiens, UniProt O96013): 101%
Cyclin-dependent kinase 2, with cyclin E (CDK2, Homo sapiens, UniProt P24941): 101%
Maternal embryonic leucine zipper kinase (MELK, Homo sapiens, UniProt Q14680): 102%
Casein kinase I isoform epsilon (CSNK1E, Homo sapiens, UniProt P49674): 80.9%
Calcium/calmodulin-dependent protein kinase type 1 (CAMK1, Homo sapiens, UniProt Q14012): 102%
Serine/threonine-protein kinase pim-1 (PIM1, Homo sapiens, UniProt P11309): 100%
Serine/threonine-protein kinase SIK2 (SIK2, Homo sapiens, UniProt Q9H0K1): 93.6%
Serine/threonine-protein kinase BRSK2 (BRSK2, Homo sapiens, UniProt Q8IWQ3): 96.1%

Series 4
Cell line: HaCaT
Tested at: 100 µM
Time: 18 h
Measurement: viability
Cc1ccc(-c2cc(C(F)(F)F)nn2-c2ccc(S(N)(=O)=O)cc2)cc1: 15.4%
CCOc1cc([C@@H](CS(C)(=O)=O)N2C(=O)c3cccc(NC(C)=O)c3C2=O)ccc1OC: 96.3%
O=C(Nc1ccc(O)cc1)c1ccccc1O: 63.1%
CNCc1cc(-c2ccccc2F)n(S(=O)(=O)c2cccnc2)c1: 99.9%
COc1ccccc1OCC(O)CO (centres unmarked): 108%
CC(=O)O[C@H]1CC[C@@]2(C)C(=CC[C@@H]3[C@@H]2CC[C@]2(C)C(c4cccnc4)=CC[C@@H]32)C1: 95.5%
O=c1oc2ccccc2c(O)c1Cc1c(O)c2ccccc2oc1=O: 40.5%
CCOc1nc2cccc(C(=O)O)c2n1Cc1ccc(-c2ccccc2-c2noc(=O)[nH]2)cc1: 110%

Other studies, line by line
CN(C)C(=O)/C(C#N)=C/c1ccc(-c2nc3cnc4[nH]ccc4c3n2C2CCCCC2)o1 — viability (normal-adjacent epithelium patient-derived organoids sample G; CellTiter-Glo; 0.1 µM; relative to: DMSO): 117% and 135%
O=C(NS(=O)(=O)c1ccc(NCC2CCOCC2)c([N+](=O)[O-])c1)c1ccc(N2CCN(Cc3ccc(C(F)(F)F)cc3-c3ccc(Cl)cc3)CC2)cc1Oc1cnc2[nH]ccc2c1 — inhibition (5-hydroxytryptamine receptor 5A (HTR5A, Homo sapiens, UniProt P47898); ligand displacement; 10 µM): -12.5%
CS(=O)(=O)N1CCCC(NC(=O)[C@H](CCC2CCCCC2)NC(=O)c2ccc(CNC(=O)c3cnc4ccccn34)cc2)C1 (some centres unmarked) — viability (normal-adjacent organoid sample D; CellTiter-Glo; 0.1 µM, replicate mean; relative to: DMSO): 132%
